Measurements from different studies.
Each numbered part is a random draw from the data of one study; scales do not carry over between parts. Substitutions count along the parent as printed.

Set 1
Target: CCNB2, cyclin fold, Cln2 fusion (human)
Technique: yeast growth competition, sequencing
Sample: yeast
Setting: weak parent motif
Reference: not given
Reading: higher = stronger binding
Starting sequence: ORC1 docking peptide (human); PRARKRLELGNLG
Variant | normalised enrichment score
NRARKRLELGNLG [P1N] | 0.511
PRIRKRLELGNLG [A3I] | -0.106
PRQRKRLELGNLG [A3Q] | 0.781
PRARKRLELGCLG [N11C] | 0.632
PRERKRLELGNLG [A3E] | 0.858
PRAHKRLELGNLG [R4H] | 0.613
PEARKRLELGNLG [R2E] | 0.259
PRARKRLYLGNLG [E8Y] | 0.382

Set 2
Target: RNA binding protein fox-1 homolog 2, RRM domain, GST-SBP tag (RBFOX2, Homo sapiens, UniProt O43251-10, residues 100-194)
Technique: RNA Bind-n-Seq
Form: RNA
Sample: in vitro
Concentration: 365 nM
Setting: natural RNA segment, single round, ends assumed
Reference: no-protein control
Reading: higher = stronger binding
Shared flanks, not repeated: GGGAGUUCUACAGUCCGACGAUC … UGGAAUUCUCGGGUGCCAA
Sequence | RBNS enrichment (R)
UCUAAUCGGUCCCCAAGGAGAAAGAACAUAAACAAAGAGUGAGGUCUUCCCUCCCACUGAACACUAUUCCCAUAGUUUCCUUUUGCUCCCCAGCCUGUAAUUCUAAGUUC | 0.571
CUACAACCUGUUCUGGGACAGUAUCAAUACUGAUGAGCAACCUGGCACACAAACUAUGAGCAGACCACUUCAGCUUGAGAAUGCAGUGGGUCUGAAGAUGGUCAAGUCUG | 5.96
CUCCACACCCUCUGCCGACUACCACGGUGUGGAUUCAGCUCCCAAAUGACAAACCCAGCCCUUCCCAGUAUACUUGAAAAGCUUUCUUGUUAAAAUAAAAGGUGUCACUG | 0.366
UAUUCCAAGUCUCUGGUUUCCUAAGAUACAUAAUAACUGUUUAUAAAGAAGGUCUAAGAGCUGAUAUUUGCCAAAGUGAUAGAAGAGUUGUUUUUUCCUCUCUACUACCA | 0.445
AAAGCAUUUUUAAAGAUUAAUCUGAAUUAAGCUUUAUCAGUGUACUCUUUAUCUGUGUUACUAGUGCCUGGUAUGUAGUAGGUGCUCAAUAAAUGCAUAUUGAAUAACUA | 0.431
UUAAACUGGGCUGAGGCUGGUAAGACUAUAAAGCAGUGGCCCAUAAGGACUCUUAAGCGUGAGGCCAAGGAGCCACGUCCCUUCCCAGUCUGCCUGGCCCAGGGGGGCUG | 0.432
CCCCAAAAUUACAUGUUAAUUUCCAUUUAUAUCAGGGAUUCUAUUUACUUGAAGACUGUGAAGUUGCCAUUUUGUCUCAUUGUUUUCUUUGACAUAACUAGGAUCCAUUA | 0.557

Set 3
Target: Protein C-ets-1 (ETS1, Homo sapiens, UniProt P14921, residues 1-441, K379A, full length assumed)
UniProt P14921, sequence (whole entry, unmodified, looked up): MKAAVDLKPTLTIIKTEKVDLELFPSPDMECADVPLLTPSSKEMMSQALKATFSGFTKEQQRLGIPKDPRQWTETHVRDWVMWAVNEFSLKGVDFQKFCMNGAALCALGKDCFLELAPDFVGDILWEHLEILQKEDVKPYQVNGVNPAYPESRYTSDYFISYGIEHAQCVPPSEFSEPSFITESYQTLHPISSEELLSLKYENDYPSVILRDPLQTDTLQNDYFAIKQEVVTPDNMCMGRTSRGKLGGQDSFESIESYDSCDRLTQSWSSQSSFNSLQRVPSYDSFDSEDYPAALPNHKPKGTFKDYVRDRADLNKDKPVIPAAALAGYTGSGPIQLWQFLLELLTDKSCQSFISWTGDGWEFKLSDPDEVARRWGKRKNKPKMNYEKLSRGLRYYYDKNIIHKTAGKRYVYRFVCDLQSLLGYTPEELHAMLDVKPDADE
Technique: protein-binding microarray
Form: double-stranded DNA, one strand shown
Sample: in vitro
Concentration: not given
Setting: k-mer, scored over probes, only values ≥0.25
Reading: higher = stronger binding
Sequence | E-score
GGCGGGAC | 0.31
CCGGTTCG | 0.324
CGGTACAA | 0.312
AACGGATA | 0.269
CCGGTTTC | 0.372
AACATGTA | 0.3
CGGATAAC | 0.267
ATACTACG | 0.272
CGGCACGA | 0.267
ATACTTCC | 0.26
CCGGTGGC | 0.294
AGTACACA | 0.259

Single results of other studies
Molecule | target | assay | system | conditions | how to read | quantity | result
PhoQ, residues 284 288 289 292 302 303 SLGVVW | PhoP, residues 12 14 15 18 19 NMSFL (Escherichia coli, UniProt P23836) | Sort-seq, refers to: YFP reporter | E. coli | PhoQ-PhoP variant library, together with: 10 µM Mg2+ | reference: high Mg2+ state, higher = stronger signaling | fold induction | 6.99

Excerpt of the above (set 2):
Sequence | RBNS enrichment (R)
CUACAACCUGUUCUGGGACAGUAUCAAUACUGAUGAGCAACCUGGCACACAAACUAUGAGCAGACCACUUCAGCUUGAGAAUGCAGUGGGUCUGAAGAUGGUCAAGUCUG | 5.96
CCCCAAAAUUACAUGUUAAUUUCCAUUUAUAUCAGGGAUUCUAUUUACUUGAAGACUGUGAAGUUGCCAUUUUGUCUCAUUGUUUUCUUUGACAUAACUAGGAUCCAUUA | 0.557
UAUUCCAAGUCUCUGGUUUCCUAAGAUACAUAAUAACUGUUUAUAAAGAAGGUCUAAGAGCUGAUAUUUGCCAAAGUGAUAGAAGAGUUGUUUUUUCCUCUCUACUACCA | 0.445
